Measured values gathered from unrelated publications.
Parts stem from different laboratories: compare values within a part only. Changes are numbered by the printed parent chain.

Sample 1 — method: RNA Bind-n-Seq; molecule type: RNA; sample: in vitro; tested at: 200 nM; notes: whole 134-nt RNA, ends assumed; together with: 150 mM KCl; baseline: input library; reading: higher = stronger binding; quantity: log2 enrichment
Target: Fragile X messenger ribonucleoprotein 1, C-terminal low-complexity region (Fmr1, Mus musculus, UniProt P35922)
Oligonucleotide = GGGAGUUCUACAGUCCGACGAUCCCUGUGCUACACAUCGUAUGUACCGAAUCAAAUUUUUUUAAACCCCCCCAAACCCCCAAAAAAGUAUUAUGUUACGCCGUUCGGAUCUGCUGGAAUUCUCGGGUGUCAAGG; result = -0.213
Oligonucleotide = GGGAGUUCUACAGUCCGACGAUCCCUGUGCUACACAUCGUAUGUACCGAAUCAAAUUUUUUUAAAUUUUUUUAAAUUUUUAAAAAAGUAUUAUGUUACGCCGUUCGGAUCUGCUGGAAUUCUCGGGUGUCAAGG; result = -1.06
Oligonucleotide = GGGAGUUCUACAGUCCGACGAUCACCAUGCAGGUGGGCAUCUUUGGGAAGUGGGGCAAGGGGGGGAUAGGGAGGGGGGUACCACUUUGGGAACAGGUGGUCCCAGGUCGUUUCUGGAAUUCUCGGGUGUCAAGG; result = 0.854
Oligonucleotide = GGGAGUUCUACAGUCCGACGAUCCCUGUGCUACACAUCGUAUGUACCGAAUCGGGGUGGGGAAAAAAAGGGGAAAAAAAGGGGAAAGUAUUAUGUUACGCCGUUCGGAUCUGCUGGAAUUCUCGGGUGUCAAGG; result = 0.0325
Oligonucleotide = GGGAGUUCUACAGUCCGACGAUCGCUUAUGUAGACAUGAGGAAGAUUGGCAGUAGCCGGGGAAUGGUUUCUGCAUACCCUCGACAGCUAGAGUCAUUAAUCCGCUUAGCAGAAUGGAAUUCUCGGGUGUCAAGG; result = -0.157
Oligonucleotide = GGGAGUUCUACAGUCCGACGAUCCUGUGCUACACAUCGUAUGUACCGAAUCGGGUUUUUUUGGGGUUUUUUUGGGGUUUUUUUGGAAAGUAUUAUGUUACGCCGUUCGGAUCUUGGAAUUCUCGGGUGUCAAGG; result = -0.19
Oligonucleotide = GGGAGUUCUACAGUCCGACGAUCGUAAGUGUGGCAAUGUGAACUGAAGCUGAUGGGCUGAGAACAUGGACUGAGCUUGUGGUGUGCUUUGCAGGAGGACUUGAAGCAGAGUUCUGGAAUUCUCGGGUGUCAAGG; result = 1
Oligonucleotide = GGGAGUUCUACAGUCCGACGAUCCACAGACAACACGCACCCACACAGACACAAAGGGAAGGGGUUGGGAUGGGGACAGGGUGCACAGCAGGGCGGGGUAGGACCCCAGCCCCUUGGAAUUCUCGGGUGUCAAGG; result = 1.39
Oligonucleotide = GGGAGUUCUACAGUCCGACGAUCAAGUCCUGUGCUACACAUCGUAUGUACCGAAUCGGGAGGGUUUUUGGGUUUUUGGGAAAGUAUUAUGUUACGCCGUUCGGAUCUGCACUUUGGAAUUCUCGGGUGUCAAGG; result = 0.452
Oligonucleotide = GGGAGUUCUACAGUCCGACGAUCCACAGACAACACGCACCCACACAGACACAGAGGGAAGGGGUUGGGAUGGAAACAGGGUGCACAGCAGGGCGGGGUAGGACCCCAGCCCCUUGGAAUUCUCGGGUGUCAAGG; result = 0.679
Oligonucleotide = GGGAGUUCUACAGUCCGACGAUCUGGCAGCGGCCAUGGACCGCUUCGUUUGGACCAGCGGCCUCCUGGAGAUCAACGAGACCCUGGUGAUCCAGCAGCGCGGGGUGCGAAUCUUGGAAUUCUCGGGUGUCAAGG; result = -0.738
Oligonucleotide = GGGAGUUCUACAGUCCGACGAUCUCAAGUCCUGUGCUACACAUCGUAUGUACCGAAUCGGAAAAAAAGGUUUGGAGGAAAGUAUUAUGUUACGCCGUUCGGAUCUGCACUUCCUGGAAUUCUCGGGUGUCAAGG; result = -1.03
Oligonucleotide = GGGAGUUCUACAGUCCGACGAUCUAAAUUUAGAGGAGGAUCUGAUGGAUAUGGCAGUGGACGUGGAUUUGGGGAUGGCUAUAAUGGGUAUGGAGGAGGACCUGGAGGUGGCAAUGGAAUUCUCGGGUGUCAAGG; result = 0.206
Oligonucleotide = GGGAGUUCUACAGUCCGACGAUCUGGGAGGUGGAUUUUGUUUAUUUUUUUAGCUCAUUUCCAGGGGUGGGAAUGUUUUUUUAAUAUGUGUCAUGAAUAAAGUUGUUUUUGAAAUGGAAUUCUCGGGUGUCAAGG; result = 0.358

Sample 2 — method: DHFR PCA, deep sequencing; sample: yeast; together with: (+)-ABA 0 µM; baseline: wild-type fitted maximum; reading: higher = stronger binding; quantity: relative binding score
Target: ABI1, truncated, D143A, DHFR fusion (Arabidopsis thaliana)
Notes: methotrexate growth selection, single substitutions
Starting sequence: PYL1, truncated, DHFR fusion (Arabidopsis thaliana); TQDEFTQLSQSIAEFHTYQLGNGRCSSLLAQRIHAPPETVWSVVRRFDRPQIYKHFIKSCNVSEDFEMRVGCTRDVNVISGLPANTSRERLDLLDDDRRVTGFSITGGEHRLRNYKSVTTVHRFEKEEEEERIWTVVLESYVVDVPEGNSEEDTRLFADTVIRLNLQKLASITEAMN
Variant = R113L; result = 16.5%
Variant = R155S; result = -0.83%
Variant = R46T; result = 0.596%
Variant = R155G; result = -12.7%
Variant = D144K; result = -6.58%
Variant = V121T; result = 3.43%
Variant = Y53H; result = 8.97%
Variant = T106P; result = -4.59%
Variant = I79S; result = 17.2%
Variant = T106F; result = 2.16%
Variant = T135V; result = -10.7%
Variant = V161G; result = -6.09%
Variant = S26N; result = 3.66%
Variant = R113I; result = 17.7%
Variant = V118M; result = 10.4%
Variant = R74I; result = 1.96%
Variant = V118Q; result = -8.28%
Variant = D144S; result = -3.13%
Variant = N165A; result = 7.28%
Variant = T86F; result = 20.7%
Variant = R90Y; result = -2.24%

Sample 3 — method: RNA Bind-n-Seq; molecule type: RNA; sample: in vitro; tested at: not given; baseline: input RNA pool; reading: higher = stronger binding; quantity: bound/input enrichment
Target: RING finger protein unkempt homolog, zinc fingers 1-6, GST-SBP tag (UNK, Homo sapiens, UniProt Q9C0B0, residues 30-357)
Notes: RNA with constant flanks, human-mouse chimeric sites, ends assumed
Construct (chain): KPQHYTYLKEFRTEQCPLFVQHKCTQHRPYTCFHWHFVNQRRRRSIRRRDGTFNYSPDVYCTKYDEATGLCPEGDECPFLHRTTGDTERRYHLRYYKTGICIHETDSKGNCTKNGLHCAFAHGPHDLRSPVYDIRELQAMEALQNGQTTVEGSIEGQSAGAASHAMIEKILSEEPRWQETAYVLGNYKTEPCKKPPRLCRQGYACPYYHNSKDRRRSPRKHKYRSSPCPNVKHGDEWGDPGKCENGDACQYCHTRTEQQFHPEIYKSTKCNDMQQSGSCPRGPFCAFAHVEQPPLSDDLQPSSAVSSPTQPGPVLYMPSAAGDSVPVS
Oligonucleotide = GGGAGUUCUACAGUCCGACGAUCGCAGGAUCUUCUAAAUACCAGUGGGACAUUAUGAAAUCCCUUGGGCUGUCUGAUGAAGACAUAGUGAAGUUUUCUGAAGCAGAGCACUGGCUUGAUUAUUUCCCACCACUGGCCGUUCAGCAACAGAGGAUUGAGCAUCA; result = 0.164 ratio
Oligonucleotide = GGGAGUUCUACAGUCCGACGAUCUUGAAAAACACAGAUAUCAAAGUUGUUGACUUUGGAAGUGCAACAUAUGAUGAUGAACAUCACAGUACUUUGGUGUCUACCCGGCACUACAGAGCUCCCGAGGUCAUUUUGGCUUUAGGUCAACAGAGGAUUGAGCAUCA; result = 0.525 ratio
Oligonucleotide = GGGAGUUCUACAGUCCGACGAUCGAGUCGAGCAAACUUGAAACAAUUCGUUAUCUUGCAGCCUCAGUGUUCACUUGCUUGGCGAUAGCAUUGGGGUUUUAUAUAGAUUCUAAGGAGAACUGACGAUGAUGUCCUGCUGUGUGCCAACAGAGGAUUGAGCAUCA; result = 0.106 ratio
Oligonucleotide = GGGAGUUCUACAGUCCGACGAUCGAGCCCAGCCGGCAGUUUGUAAAGGACUCAAUUCGGCUGGUUAAAAGAUGCACUAAACCCGACAGAAAAGAAUUCCAGAAGAUUGCCAUGGCUACAGCUAUAGGAUUUGCUAUCAUGGGACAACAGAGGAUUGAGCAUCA; result = 0.238 ratio
Oligonucleotide = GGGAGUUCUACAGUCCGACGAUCAGAGAUAAGACAUCCAGGAACAUGCGAGGCUCCCGGAUGAAUGGACUGCCUAGCCCCACUCACAGCGCCCACUGUAGCUUCUACCGAACCAGAACCUUGCAGGCACUAAGUAAUGAGAAGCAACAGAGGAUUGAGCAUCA; result = 0.156 ratio
Oligonucleotide = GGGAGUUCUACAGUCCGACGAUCGUGUCCUGCUUUCAACUAUCACUGAGGAGGCAUCUCUACUGUUCUGUGAGCAUCAGGACUGUAGCGCUGUGUCACCACAUGAGAGUUCAGAAGCAGCCUUUCUGUGGAGAGUGAGAAUGACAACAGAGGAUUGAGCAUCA; result = 0.0685 ratio
Oligonucleotide = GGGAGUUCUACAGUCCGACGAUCGAGCCCAGCCGGCAGUUUGUAAAGGACUCCAUUCGGCUGGUUAAAAGAUGCACCAAACCCGACAGAAAAGAAUUCCAGAAGAUUGCCAUGGCUACAGCUAUAGGAUUUGCUAUCAUGGGACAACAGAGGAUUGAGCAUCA; result = 0.264 ratio

Sample 4 — target: CCNA2, cyclin fold, Cln2 fusion (human); method: yeast growth competition, sequencing; sample: yeast; notes: weak parent motif; baseline: not given; reading: higher = stronger binding; quantity: normalised enrichment score
Starting sequence: FOXM1 docking peptide (human); PHLARPIKVESPP
Variant = V9A; result = -0.335
Variant = H2A; result = -0.629
Variant = K8A; result = -0.268
Variant = P13A; result = -0.546
Variant = P6A; result = -0.236
Variant = R5A; result = -0.875

Sample 5 — target: UBE2Z UBC core domain (UniProt Q9H832); method: yeast two-hybrid; sample: yeast; notes: mostly zero background; baseline: not given; reading: higher = stronger interaction; quantity: lacZ reporter activity
B1: UHRF2 RING domain (UniProt Q96PU4); chain CGGDPEKKCHSCSCRVCGGKHEPNMQLLCDECNVAYHIYCLNPPLDKVPEEEYWYCPSCKTDSSEVVKAGER
B2: RC3H2 RING domain (UniProt Q9HBD1); chain QAAQWTEFLSCPICYNEFDENVHKPISLGCSHTVCKTCLNKLHRKACPFDQTAINTDIDVL
B3: PHF21A RING domain (UniProt Q96BD5); chain SPTSTDGDIHEDFCSVCRKSGQLLMCDTCSRVYHLDCLDPPLKTIPKGMWICPRCQDQMLKKEEAIPW
B4: CUL9 RING domain (UniProt Q8IWT3); chain AQAVPVRPDHCPVCVSPLGCDDDLPSLCCMHYCCKSCWNEYLTTRIEQNLVLNCTCPIADCPAQPTGAFIR
B5: RNF25 RING domain (UniProt Q96BH1); chain LTDNNIPHGQCVICLYGFQEKEAFTKTPCYHYFHCHCLARYIQHMEQELKAQGQEQEQERQHATTKQKAVGVQCPVCREPLVYDLASL
B6: ARK2C RING domain (UniProt Q6ZSG1); chain EGEESDTDEKCTICLSMLEDGEDVRRLPCMHLFHQLCVDQWLAMSKKCPICRVDIETQLGAD
Construct (chain): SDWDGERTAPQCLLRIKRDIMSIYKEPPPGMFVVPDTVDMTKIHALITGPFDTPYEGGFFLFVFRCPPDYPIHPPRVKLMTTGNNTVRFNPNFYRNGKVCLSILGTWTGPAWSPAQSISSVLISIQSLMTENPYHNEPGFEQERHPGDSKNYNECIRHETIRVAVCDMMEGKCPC
Molecule = FASPPDSNFVCSVCHGVLKRPARLPCSHIFCKKCILRWLARQKTCPCCRKEVKRKKVVH (RNF151 RING domain (UniProt Q2KHN1)); result = 0
Molecule = QLQDIKEQTMCPVCLDRLKNMIFLCGHGTCQLCGDRMSECPICRKAIERRILLY (MIB1 RING domain (UniProt Q86YT6)); result = 0
Molecule = DAIPSLSECQCGICMEILVEPVTLPCNHTLCKPCFQSTVEKASLCCPFCRRRVSSWTRYH (RNF168 RING domain (UniProt Q8IYW5)); result = 0
Molecule = FPEHFVKSISCQICEHILADPVETNCKHVFCRVCILRCLKVMGSYCPSCRYPCFPTDLES (RAG1 RING domain (UniProt P15918)); result = 0
Molecule = B1 (UHRF2 RING domain); result = 0
Molecule = B2 (RC3H2 RING domain); result = 0
Molecule = B3 (PHF21A RING domain); result = 0
Molecule = QLRRLQEERTCKVCMDKEVSIVFIPCGHLVVCKDCAPSLRKCPICRSTIKGTVRTF (BIRC3 RING domain (UniProt Q13489)); result = 0
Molecule = B4 (CUL9 RING domain); result = 0
Molecule = B5 (RNF25 RING domain); result = 0
Molecule = B6 (ARK2C RING domain); result = 0

For quick reference, copied from above (sample 5):
Molecule = B1 (UHRF2 RING domain); result = 0
Molecule = FASPPDSNFVCSVCHGVLKRPARLPCSHIFCKKCILRWLARQKTCPCCRKEVKRKKVVH (RNF151 RING domain (UniProt Q2KHN1)); result = 0
Molecule = B3 (PHF21A RING domain); result = 0
Molecule = B4 (CUL9 RING domain); result = 0
Molecule = QLRRLQEERTCKVCMDKEVSIVFIPCGHLVVCKDCAPSLRKCPICRSTIKGTVRTF (BIRC3 RING domain (UniProt Q13489)); result = 0
